{"data": "Assay results from different studies", "note": "A part holds a random share of what one study measured. Substitutions count along the parent as printed.", "sequence of UniProt Q9ZTX9 (whole entry, looked up)": "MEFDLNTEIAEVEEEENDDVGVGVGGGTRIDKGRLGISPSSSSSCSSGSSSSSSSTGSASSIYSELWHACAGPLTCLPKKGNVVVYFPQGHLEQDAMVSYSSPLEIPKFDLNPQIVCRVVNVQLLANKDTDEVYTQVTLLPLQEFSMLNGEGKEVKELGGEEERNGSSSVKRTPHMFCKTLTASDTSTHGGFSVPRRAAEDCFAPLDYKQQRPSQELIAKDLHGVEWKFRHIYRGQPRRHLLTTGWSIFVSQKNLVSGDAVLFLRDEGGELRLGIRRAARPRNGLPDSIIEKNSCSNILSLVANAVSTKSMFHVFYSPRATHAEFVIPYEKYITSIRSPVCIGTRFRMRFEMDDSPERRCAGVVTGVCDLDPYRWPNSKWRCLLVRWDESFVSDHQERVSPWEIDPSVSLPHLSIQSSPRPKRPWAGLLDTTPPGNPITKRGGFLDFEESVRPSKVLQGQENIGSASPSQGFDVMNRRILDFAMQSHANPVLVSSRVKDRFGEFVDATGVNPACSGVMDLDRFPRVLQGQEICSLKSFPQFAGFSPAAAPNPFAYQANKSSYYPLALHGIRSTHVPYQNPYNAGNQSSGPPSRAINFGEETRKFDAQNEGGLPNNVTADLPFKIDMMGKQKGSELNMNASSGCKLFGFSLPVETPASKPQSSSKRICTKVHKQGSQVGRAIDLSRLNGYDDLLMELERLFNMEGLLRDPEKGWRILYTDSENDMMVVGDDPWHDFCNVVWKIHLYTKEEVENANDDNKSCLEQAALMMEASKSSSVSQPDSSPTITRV", "sequence of UniProt Q9ZSY8 (whole entry, looked up)": "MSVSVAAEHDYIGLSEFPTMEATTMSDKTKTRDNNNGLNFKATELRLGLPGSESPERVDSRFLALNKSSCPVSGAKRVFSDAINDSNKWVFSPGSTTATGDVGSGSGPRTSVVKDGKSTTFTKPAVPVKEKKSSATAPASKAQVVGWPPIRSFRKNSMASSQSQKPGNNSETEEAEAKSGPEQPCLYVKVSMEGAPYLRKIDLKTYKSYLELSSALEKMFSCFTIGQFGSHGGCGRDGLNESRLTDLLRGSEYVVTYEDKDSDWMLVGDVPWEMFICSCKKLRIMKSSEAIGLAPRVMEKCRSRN", "sequence of UniProt Q9M1R4 (whole entry, looked up)": "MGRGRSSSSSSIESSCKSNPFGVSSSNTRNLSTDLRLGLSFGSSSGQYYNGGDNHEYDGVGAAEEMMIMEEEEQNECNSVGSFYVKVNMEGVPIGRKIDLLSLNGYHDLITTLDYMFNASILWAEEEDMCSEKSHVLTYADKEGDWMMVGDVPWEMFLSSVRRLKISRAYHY", "sequence of UniProt Q9FGV1 (whole entry, looked up)": "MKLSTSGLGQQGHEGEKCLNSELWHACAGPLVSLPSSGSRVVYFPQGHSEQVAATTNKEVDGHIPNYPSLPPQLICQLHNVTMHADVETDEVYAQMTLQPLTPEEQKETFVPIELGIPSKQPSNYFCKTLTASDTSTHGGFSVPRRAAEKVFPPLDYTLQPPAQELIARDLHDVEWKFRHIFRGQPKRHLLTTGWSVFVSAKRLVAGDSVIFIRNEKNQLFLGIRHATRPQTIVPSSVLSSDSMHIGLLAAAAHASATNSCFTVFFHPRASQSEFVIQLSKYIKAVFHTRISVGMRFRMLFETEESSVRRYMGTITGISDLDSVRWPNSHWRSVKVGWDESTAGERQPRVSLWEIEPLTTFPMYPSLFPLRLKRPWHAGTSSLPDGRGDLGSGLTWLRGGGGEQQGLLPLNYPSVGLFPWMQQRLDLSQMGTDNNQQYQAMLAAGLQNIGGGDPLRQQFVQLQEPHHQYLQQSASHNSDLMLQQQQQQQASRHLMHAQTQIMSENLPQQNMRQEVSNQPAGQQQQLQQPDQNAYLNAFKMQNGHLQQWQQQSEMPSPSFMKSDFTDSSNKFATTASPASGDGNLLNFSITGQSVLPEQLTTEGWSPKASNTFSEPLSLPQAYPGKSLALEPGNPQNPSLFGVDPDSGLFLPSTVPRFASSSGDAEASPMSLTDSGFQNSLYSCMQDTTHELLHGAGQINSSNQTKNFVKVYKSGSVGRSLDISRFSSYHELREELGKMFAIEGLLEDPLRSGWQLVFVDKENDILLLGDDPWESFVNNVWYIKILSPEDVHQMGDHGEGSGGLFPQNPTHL", "sequence of UniProt Q9FKM7 (whole entry, looked up)": "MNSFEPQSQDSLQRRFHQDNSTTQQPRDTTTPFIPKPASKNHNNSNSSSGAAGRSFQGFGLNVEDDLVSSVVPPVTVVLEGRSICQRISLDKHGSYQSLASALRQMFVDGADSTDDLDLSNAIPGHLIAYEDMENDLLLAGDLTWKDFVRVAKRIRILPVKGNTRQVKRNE"}
{"data": "Sample 1", "target": "Runt-related transcription factor 3, Runt domain (RUNX3, Homo sapiens, UniProt Q13761, residues 53-186)", "technique": "protein-binding microarray", "form": "hairpin DNA", "matrix": "in vitro", "tested at": "not given", "notes": "whole hairpin DNA, median over replicate spots", "baseline": "not given", "direction": "higher = stronger binding", "sequence of UniProt Q13761 (53-186, looked up)": "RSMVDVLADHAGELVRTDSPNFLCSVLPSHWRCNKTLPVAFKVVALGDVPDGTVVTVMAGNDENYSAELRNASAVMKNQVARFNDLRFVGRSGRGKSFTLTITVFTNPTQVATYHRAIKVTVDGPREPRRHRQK"}
{"Strand": "GAGGCCTCTTGCGGTTGGCCTCCTGGCCAACCGCAAGAGGCCTCACACTC (5mC at 8)", "median fluorescence [a.u.]": 7860}
{"Strand": "GAGGCCTGTCGCGGTTGGCCTCCTGGCCAACCGCGACAGGCCTCACACTC (5mC at 10 12 32)", "median fluorescence [a.u.]": 5030}
{"Strand": "GAGGCCTCGCGCGGTTGGCCTCCTGGCCAACCGCGCGAGGCCTCACACTC (5mC at 8 36)", "median fluorescence [a.u.]": 5730}
{"Strand": "GAGGCCGAACCGCAACAGCCTCCTGGCTGTTGCGGTTCGGCCTCACACTC", "median fluorescence [a.u.]": 7200}
{"Strand": "GAGGCCTGTCGCGCTTGGCCTCCTGGCCAAGCGCGACAGGCCTCACACTC", "median fluorescence [a.u.]": 5070}
{"Strand": "GAGGCCTGTTCGGGTTGGCCTCCTGGCCAACCCGAACAGGCCTCACACTC (5mC at 11 33)", "median fluorescence [a.u.]": 4790}
{"Strand": "GAGGCCTGCGGTGGTTGGCCTCCTGGCCAACCACCGCAGGCCTCACACTC (5mC at 9 35)", "median fluorescence [a.u.]": 5070}
{"Strand": "GAGGCCTGTTGTCGTTGGCCTCCTGGCCAACGACAACAGGCCTCACACTC (5mC at 13 31)", "median fluorescence [a.u.]": 4400}
{"data": "Sample 2", "target": "Ras GTPase-activating protein-binding protein 1, RRM domain (G3BP1, Homo sapiens, UniProt Q13283)", "technique": "RNA Bind-n-Seq", "form": "RNA", "matrix": "in vitro", "tested at": "1 µM", "notes": "whole 134-nt RNA, ends assumed", "together with": "150 mM KCl", "baseline": "input library", "direction": "higher = stronger binding", "sequence of UniProt Q13283 (whole entry, looked up)": "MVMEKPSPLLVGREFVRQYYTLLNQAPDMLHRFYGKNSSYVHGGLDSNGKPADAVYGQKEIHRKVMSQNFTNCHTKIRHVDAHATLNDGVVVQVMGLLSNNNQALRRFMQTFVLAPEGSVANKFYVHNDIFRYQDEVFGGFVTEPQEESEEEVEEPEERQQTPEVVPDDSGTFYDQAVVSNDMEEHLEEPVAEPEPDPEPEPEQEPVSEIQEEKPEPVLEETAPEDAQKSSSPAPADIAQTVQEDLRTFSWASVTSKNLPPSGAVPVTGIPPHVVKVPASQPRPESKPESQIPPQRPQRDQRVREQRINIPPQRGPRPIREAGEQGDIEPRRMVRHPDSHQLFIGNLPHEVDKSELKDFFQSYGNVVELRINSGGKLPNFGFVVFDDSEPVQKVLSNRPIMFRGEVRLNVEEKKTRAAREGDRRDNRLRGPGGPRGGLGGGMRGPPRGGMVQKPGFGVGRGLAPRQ"}
{"Strand": "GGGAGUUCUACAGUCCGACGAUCGCAGGAAGUAAAAACAAAUGGAAAUGCUCCGGAUAGUGGCAGGGGUGGGGGUUGCUAAGGAAAGGGUGGGAUGGGAGUGGGUAAAGAGUUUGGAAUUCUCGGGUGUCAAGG", "log2 enrichment": 1.46}
{"Strand": "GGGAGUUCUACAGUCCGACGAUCUCCUCAAGUCCUGUGCUACACAUCGUAUGUACCGAAUCGGGGAGGAGGAGGAAAGUAUUAUGUUACGCCGUUCGGAUCUGCACUUCCAGCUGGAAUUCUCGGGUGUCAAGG", "log2 enrichment": -0.288}
{"Strand": "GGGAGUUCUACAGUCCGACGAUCCAAGUCCUGUGCUACACAUCGUAUGUACCGAAUCGGGUUUGGGUUUUUGGGAGGGAAAGUAUUAUGUUACGCCGUUCGGAUCUGCACUUCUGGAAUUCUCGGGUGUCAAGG", "log2 enrichment": 0.627}
{"Strand": "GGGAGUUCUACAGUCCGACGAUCCUCAAGUCCUGUGCUACACAUCGUAUGUACCGAAUCGGGAAGGAAGGAAGGGGAAAGUAUUAUGUUACGCCGUUCGGAUCUGCACUUCCAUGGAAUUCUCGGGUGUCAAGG", "log2 enrichment": -0.165}
{"Strand": "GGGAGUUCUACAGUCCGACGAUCCCUGUGCUACACAUCGUAUGUACCGAAUCGGUUUUUUUGGUUUUUUUGGGGUUUUUUUGGGAAAGUAUUAUGUUACGCCGUUCGGAUCUGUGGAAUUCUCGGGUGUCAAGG", "log2 enrichment": -0.33}
{"Strand": "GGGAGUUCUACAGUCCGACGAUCUCAAGUCCUGUGCUACACAUCGUAUGUACCGAAUCGGAGGUUUUUUUGGAAAGGAAAGUAUUAUGUUACGCCGUUCGGAUCUGCACUUCCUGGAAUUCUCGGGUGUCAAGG", "log2 enrichment": -0.146}
{"Strand": "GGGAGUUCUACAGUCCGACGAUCACCAUGCAGGUGGGCAUCUUUCGGAAGUGGGGCAAGGGGGGGAUAGGGAGGGGGGUAACACUUUGGGAACAGGUGGUCCCAGGUCGUUUCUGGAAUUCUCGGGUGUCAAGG", "log2 enrichment": -0.546}
{"Strand": "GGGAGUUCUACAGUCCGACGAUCUUCACAGCCAGCAGGCAUUGGAAUAUGGCACCAAACUCGUUGGAGGAACCACUCCAGGGAAAGGAGGCCAGACACAUCUGGGCUUACCUGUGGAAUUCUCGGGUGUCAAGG", "log2 enrichment": -0.381}
{"data": "Sample 3", "Sequence": "B1 (IAA18)", "technique": "two-hybrid", "direction": "higher = firmer interaction", "B1": "IAA18 (Arabidopsis thaliana, UniProt O24408); chain MEGYSRNGEISPKLLDLMIPQERRNWFHDEKNSVFKTEEKKLELKLGPPGEEDDDESMIRHMKKEPKDKSILSLAGKYFSPSSTKTTSHKRTAPGPVVGWPPVRSFRKNLASGSSSKLGNDSTTSNGVTLKNQKCDAAAKTTEPKRQGGMFVKINMYGVPIGRKVDLSAHNSYEQLSFTVDKLFRGLLAAQRDFPSSIEDEKPITGLLDGNGEYTLTYEDNEGDKMLVGDVPWQMFVSSVKRLRVIKTSEISSALTYGNGKQEKMRR"}
{"partner": "IAA30 (Arabidopsis thaliana, UniProt Q9M1R4)", "setting": "weak activation fusion", "scale": "baseline: out of 4 tests", "positive tests": 1}
{"partner": "ARF4 660-788 (Arabidopsis thaliana, UniProt Q9ZTX9)", "scale": "baseline: out of 4 tests", "positive tests": 0}
{"partner": "IAA27 (Arabidopsis thaliana, UniProt Q9ZSY8)", "scale": "baseline: out of 4 tests", "positive tests": 2}
{"partner": "IAA26 (Arabidopsis thaliana, UniProt Q8LAL2)", "scale": "baseline: out of 4 tests", "positive tests": 1}
{"partner": "ARF8 699-811 (Arabidopsis thaliana, UniProt Q9FGV1)", "scale": "baseline: out of 3 tests", "positive tests": 3}
{"partner": "IAA33 (Arabidopsis thaliana, UniProt Q9FKM7)", "scale": "baseline: out of 4 tests", "positive tests": 2}
{"data": "Single results of other studies", "starting sequence": "viral docking peptide; YKVKRRLVFGADD"}
{"Substitution": "YKVKYRLVFGADD [R5Y]", "target": "CCND3, cyclin fold, Cln2 fusion (human)", "assay": "yeast growth competition, sequencing", "system": "yeast", "setting": "weak parent motif", "scale": "baseline: not given, higher = stronger binding", "quantity": "normalised enrichment score", "result": 0.141}
{"note": "Some of these lines once more (sample 2):"}
{"Strand": "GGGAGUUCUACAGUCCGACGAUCCUCAAGUCCUGUGCUACACAUCGUAUGUACCGAAUCGGGAAGGAAGGAAGGGGAAAGUAUUAUGUUACGCCGUUCGGAUCUGCACUUCCAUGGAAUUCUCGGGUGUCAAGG", "log2 enrichment": -0.165}
{"Strand": "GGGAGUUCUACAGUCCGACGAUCCCUGUGCUACACAUCGUAUGUACCGAAUCGGUUUUUUUGGUUUUUUUGGGGUUUUUUUGGGAAAGUAUUAUGUUACGCCGUUCGGAUCUGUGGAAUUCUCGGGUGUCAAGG", "log2 enrichment": -0.33}
